{"data": "Results pooled from the literature", "note": "Numbered parts are unrelated; each lists some results of a single study. Several values in a cell are separate wells, animals, samples, runs or records.", "UniProt Q96NX5, sequence (whole entry, looked up)": "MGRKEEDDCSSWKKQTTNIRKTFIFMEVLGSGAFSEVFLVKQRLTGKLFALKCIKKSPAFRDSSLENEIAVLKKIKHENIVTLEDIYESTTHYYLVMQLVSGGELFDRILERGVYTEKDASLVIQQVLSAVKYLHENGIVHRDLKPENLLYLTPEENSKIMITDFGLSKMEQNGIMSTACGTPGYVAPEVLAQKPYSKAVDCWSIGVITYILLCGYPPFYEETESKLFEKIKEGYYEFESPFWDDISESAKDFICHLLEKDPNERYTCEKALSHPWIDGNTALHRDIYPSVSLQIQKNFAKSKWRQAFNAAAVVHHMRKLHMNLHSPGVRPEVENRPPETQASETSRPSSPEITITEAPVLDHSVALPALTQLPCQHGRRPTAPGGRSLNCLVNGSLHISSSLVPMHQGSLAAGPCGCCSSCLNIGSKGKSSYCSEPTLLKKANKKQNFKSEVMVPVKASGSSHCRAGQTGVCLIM", "UniProt Q96BR1, sequence (whole entry, looked up)": "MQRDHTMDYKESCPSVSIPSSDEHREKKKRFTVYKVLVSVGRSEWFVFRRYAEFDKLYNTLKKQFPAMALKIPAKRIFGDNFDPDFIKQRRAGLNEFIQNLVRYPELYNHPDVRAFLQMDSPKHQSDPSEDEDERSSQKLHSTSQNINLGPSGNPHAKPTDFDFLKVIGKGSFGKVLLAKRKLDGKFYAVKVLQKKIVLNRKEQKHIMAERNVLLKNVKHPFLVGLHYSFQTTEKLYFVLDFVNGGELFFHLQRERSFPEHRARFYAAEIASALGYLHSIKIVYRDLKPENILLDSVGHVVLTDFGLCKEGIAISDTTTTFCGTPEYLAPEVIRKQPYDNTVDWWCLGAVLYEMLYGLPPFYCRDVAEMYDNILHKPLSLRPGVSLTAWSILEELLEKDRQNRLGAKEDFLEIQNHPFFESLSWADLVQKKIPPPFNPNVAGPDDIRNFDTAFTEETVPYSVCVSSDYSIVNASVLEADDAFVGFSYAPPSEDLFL", "UniProt Q86YV6, sequence (whole entry, looked up)": "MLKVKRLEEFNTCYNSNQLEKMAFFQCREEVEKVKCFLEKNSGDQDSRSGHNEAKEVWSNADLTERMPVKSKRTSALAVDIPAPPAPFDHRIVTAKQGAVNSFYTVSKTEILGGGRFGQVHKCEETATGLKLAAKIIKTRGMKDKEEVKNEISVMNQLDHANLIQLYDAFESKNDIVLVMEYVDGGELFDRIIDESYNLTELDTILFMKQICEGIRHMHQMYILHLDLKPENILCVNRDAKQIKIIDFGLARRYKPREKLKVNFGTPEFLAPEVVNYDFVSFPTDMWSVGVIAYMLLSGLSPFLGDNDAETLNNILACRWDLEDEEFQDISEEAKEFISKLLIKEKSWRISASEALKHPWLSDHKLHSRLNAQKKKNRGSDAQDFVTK", "UniProt P49761, sequence (whole entry, looked up)": "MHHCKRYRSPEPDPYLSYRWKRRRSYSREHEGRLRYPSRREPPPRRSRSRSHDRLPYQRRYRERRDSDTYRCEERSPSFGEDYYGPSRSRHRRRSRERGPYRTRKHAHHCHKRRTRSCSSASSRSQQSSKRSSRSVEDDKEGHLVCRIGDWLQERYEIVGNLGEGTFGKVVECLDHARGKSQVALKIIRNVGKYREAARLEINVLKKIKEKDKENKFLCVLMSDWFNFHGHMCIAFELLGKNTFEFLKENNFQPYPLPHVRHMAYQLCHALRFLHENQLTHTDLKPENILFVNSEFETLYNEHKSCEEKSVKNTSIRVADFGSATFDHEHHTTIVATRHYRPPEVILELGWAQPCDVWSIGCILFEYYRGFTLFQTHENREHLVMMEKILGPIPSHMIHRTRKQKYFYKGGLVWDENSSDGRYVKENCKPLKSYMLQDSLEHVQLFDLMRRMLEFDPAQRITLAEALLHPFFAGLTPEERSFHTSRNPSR", "UniProt Q9UBF8, sequence (whole entry, looked up)": "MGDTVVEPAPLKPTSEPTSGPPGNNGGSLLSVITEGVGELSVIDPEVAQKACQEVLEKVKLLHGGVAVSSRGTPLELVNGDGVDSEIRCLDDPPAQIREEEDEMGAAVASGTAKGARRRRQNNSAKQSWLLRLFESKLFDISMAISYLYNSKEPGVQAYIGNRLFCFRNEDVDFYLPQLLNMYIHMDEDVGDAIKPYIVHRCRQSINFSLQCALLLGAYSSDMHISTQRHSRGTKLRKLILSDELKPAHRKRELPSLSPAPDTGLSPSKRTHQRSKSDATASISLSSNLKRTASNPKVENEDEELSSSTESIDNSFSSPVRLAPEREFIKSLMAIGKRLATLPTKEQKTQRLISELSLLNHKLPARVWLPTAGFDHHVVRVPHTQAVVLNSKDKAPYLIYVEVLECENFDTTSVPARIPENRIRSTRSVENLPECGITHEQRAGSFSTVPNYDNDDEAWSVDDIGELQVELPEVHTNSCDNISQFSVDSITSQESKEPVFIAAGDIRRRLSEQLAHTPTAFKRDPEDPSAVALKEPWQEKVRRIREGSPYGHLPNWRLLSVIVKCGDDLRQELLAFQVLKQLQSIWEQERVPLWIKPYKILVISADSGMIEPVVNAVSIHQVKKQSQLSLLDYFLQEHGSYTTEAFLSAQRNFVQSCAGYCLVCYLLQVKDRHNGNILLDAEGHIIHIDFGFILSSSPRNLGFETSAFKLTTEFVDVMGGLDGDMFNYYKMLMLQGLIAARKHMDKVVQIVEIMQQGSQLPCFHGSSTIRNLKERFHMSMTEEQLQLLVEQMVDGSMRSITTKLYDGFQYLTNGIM", "UniProt P33981, sequence (whole entry, looked up)": "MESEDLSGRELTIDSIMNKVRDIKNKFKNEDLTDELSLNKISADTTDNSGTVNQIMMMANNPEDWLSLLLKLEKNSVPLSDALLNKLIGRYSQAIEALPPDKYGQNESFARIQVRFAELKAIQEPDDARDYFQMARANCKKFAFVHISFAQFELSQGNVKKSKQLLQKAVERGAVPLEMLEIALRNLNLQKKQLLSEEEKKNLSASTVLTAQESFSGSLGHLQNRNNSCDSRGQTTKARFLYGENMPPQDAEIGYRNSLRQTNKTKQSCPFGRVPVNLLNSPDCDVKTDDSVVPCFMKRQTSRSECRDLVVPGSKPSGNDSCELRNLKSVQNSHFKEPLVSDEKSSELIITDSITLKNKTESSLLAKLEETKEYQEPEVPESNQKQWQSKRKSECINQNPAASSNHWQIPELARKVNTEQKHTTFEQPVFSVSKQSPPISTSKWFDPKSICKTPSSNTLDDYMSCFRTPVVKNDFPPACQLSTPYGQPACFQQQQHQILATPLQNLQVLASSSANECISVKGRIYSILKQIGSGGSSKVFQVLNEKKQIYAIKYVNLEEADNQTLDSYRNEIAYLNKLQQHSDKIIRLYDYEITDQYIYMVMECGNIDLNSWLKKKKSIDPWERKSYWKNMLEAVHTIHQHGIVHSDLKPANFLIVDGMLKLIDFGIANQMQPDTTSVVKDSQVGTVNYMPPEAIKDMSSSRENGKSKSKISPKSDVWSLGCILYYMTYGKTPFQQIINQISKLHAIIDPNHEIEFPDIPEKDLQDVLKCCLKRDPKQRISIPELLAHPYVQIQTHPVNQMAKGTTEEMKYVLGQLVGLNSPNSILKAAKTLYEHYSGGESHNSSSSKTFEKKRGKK", "UniProt P57058, sequence (whole entry, looked up)": "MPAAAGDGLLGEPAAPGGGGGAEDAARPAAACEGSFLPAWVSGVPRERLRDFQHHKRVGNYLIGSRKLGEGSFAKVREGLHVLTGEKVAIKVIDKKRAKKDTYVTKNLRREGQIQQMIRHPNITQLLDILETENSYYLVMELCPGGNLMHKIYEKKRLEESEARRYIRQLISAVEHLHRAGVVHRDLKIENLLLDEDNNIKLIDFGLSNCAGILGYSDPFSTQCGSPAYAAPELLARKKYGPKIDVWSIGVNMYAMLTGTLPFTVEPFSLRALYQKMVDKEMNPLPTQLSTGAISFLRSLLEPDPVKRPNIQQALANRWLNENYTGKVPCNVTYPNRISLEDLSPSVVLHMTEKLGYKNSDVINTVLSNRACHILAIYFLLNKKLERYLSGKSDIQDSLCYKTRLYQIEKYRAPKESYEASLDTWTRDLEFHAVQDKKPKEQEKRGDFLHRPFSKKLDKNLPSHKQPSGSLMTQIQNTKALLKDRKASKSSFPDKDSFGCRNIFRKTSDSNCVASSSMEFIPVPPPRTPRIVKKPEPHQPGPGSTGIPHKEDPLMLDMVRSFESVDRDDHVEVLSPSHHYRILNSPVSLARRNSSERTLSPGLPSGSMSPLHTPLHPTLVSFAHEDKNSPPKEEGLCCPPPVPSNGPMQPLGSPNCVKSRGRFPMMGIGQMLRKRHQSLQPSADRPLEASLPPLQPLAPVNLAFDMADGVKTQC", "UniProt Q15569, sequence (whole entry, looked up)": "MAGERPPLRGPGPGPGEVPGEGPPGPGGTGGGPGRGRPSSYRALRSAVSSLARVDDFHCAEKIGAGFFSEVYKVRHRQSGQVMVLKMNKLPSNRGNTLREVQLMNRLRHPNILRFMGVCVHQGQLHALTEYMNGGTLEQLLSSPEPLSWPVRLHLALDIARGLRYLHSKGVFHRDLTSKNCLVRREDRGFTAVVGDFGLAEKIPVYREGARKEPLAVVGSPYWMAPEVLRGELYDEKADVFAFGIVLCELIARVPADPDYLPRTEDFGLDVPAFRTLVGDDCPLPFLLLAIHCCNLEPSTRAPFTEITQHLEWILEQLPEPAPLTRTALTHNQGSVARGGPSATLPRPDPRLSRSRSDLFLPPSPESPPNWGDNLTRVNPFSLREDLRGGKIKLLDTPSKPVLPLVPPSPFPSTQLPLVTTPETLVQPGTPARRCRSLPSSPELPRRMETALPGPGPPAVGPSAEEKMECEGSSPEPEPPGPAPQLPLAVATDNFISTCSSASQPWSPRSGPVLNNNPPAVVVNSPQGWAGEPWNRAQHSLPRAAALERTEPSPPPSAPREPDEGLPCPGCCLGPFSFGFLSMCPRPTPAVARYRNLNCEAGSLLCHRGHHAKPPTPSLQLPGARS"}
{"data": "Study 1", "cell line": "mouse MPNST tumor cells", "technique": "high-content immunofluorescence imaging", "measured": "nuclear SOX9", "concentration": "10 µM", "time": "12 h", "setting": "mean of 2 replicates", "relative to": "DMSO control", "direction": "higher = more nuclear SOX9"}
{"Structure (SMILES)": "CC1=C(C#N)C(=C(C#N)C#N)OC1(C)c1ccc(Cl)c(Cl)c1 (centres unmarked)", "nuclear SOX9 intensity": "106 % of DMSO"}
{"Structure (SMILES)": "O=S(=O)(NCCNC/C=C/c1ccc(Br)cc1)c1cccc2cnccc12", "nuclear SOX9 intensity": "210 % of DMSO"}
{"Structure (SMILES)": "O=C(O)c1ccc(S(=O)(=O)N(Cc2ccc(OC(F)(F)F)cc2)c2ncc(C(F)(F)F)cc2Cl)cc1", "nuclear SOX9 intensity": "83 % of DMSO"}
{"Structure (SMILES)": "C[N+](C)(CCOc1ccccc1)Cc1ccccc1.O=C([O-])c1cc2ccccc2cc1O", "nuclear SOX9 intensity": "85.6 % of DMSO"}
{"Structure (SMILES)": "CC(C)Oc1ccc(Cc2ccc(NC3=NCCN3)cc2)cc1", "nuclear SOX9 intensity": "212 % of DMSO"}
{"Structure (SMILES)": "CCCc1nc(C)c2c(=O)nc(-c3cc(S(=O)(=O)N4CCN(CC)CC4)ccc3OCC)[nH]n12", "nuclear SOX9 intensity": "120 % of DMSO"}
{"Structure (SMILES)": "COc1ccc(C[C@H](NC(C)=O)C(=O)N[C@H]2[C@@H](O)[C@H](n3cnc4c(N(C)C)ncnc43)O[C@@H]2CO)cc1", "nuclear SOX9 intensity": "95.7 % of DMSO"}
{"Structure (SMILES)": "O=c1[nH]c(=O)n([C@H]2C[C@H](O)[C@@H](CO)O2)cc1I", "nuclear SOX9 intensity": "98.1 % of DMSO"}
{"Structure (SMILES)": "CCNC(=O)[C@H]1O[C@@H](n2cnc3c(N)nc(NCCc4ccc(CCC(=O)O)cc4)nc32)[C@H](O)[C@@H]1O", "nuclear SOX9 intensity": "100 % of DMSO"}
{"Structure (SMILES)": "CCOC(=O)CCNc1cc(N2CCc3ccccc3CC2)nc(-c2cccnc2)n1", "nuclear SOX9 intensity": "109 % of DMSO"}
{"Structure (SMILES)": "CCN(CC)C(=S)S", "nuclear SOX9 intensity": "90.3 % of DMSO"}
{"Structure (SMILES)": "Nc1nc2ccc(OC(F)(F)F)cc2s1", "nuclear SOX9 intensity": "102 % of DMSO and 110 % of DMSO"}
{"Structure (SMILES)": "Cc1c(C)c2c(c(C)c1O)CCC(C)(COc1ccc(CC3SC(=O)NC3=O)cc1)O2 (centres unmarked)", "nuclear SOX9 intensity": "86.6 % of DMSO"}
{"Structure (SMILES)": "COCCN1CCC(C(=O)NO)(S(=O)(=O)c2ccc(Oc3ccc(OC(F)(F)F)cc3)cc2)CC1", "nuclear SOX9 intensity": "97.4 % of DMSO"}
{"Structure (SMILES)": "CC1=C(/C=C/C(C)=C/C=C/C(C)=C\\C(=O)O)C(C)(C)CCC1", "nuclear SOX9 intensity": "111 % of DMSO"}
{"Structure (SMILES)": "CO[C@H]1/C=C/O[C@@]2(C)Oc3c(C)c(O)c4c(O)c(c5c(nc6cc(C)ccn65)c4c3C2=O)NC(=O)/C(C)=C\\C=C\\[C@H](C)[C@H](O)[C@@H](C)[C@@H](O)[C@@H](C)[C@H](OC(C)=O)[C@@H]1C", "nuclear SOX9 intensity": "99.3 % of DMSO"}
{"data": "Study 2", "SMILES": "O=C(NCc1ncc(C(F)(F)F)cc1Cl)c1ccc2c(c1)C1(CCS(=O)(=O)CC1)[C@@H](C1CC1)N2S(=O)(=O)c1ccc(F)cc1", "read-out": "cell-free assay", "technique": "competition with immobilised ligand", "concentration": "1 µM"}
{"target": "Serine/threonine-protein kinase Sgk3 (SGK3, Homo sapiens, UniProt Q96BR1)", "remaining binding [%]": 83}
{"target": "Calcium/calmodulin-dependent protein kinase type II subunit gamma (CAMK2G, Homo sapiens, UniProt Q13555)", "remaining binding [%]": 84}
{"target": "Myosin light chain kinase, smooth muscle (MYLK, Homo sapiens, UniProt Q15746)", "remaining binding [%]": 74}
{"target": "Dual specificity mitogen-activated protein kinase kinase 6 (MAP2K6, Homo sapiens, UniProt P52564)", "remaining binding [%]": 100}
{"target": "Myosin light chain kinase family member 4 (MYLK4, Homo sapiens, UniProt Q86YV6)", "remaining binding [%]": 95}
{"target": "Dual specificity protein kinase TTK (TTK, Homo sapiens, UniProt P33981)", "remaining binding [%]": 100}
{"target": "Leucine-rich repeat serine/threonine-protein kinase 2 (LRRK2, Homo sapiens, UniProt Q5S007, G2019S)", "remaining binding [%]": 100}
{"target": "Hormonally up-regulated neu tumor-associated kinase (HUNK, Homo sapiens, UniProt P57058)", "remaining binding [%]": 85}
{"target": "Macrophage-stimulating protein receptor (MST1R, Homo sapiens, UniProt Q04912)", "remaining binding [%]": 100}
{"target": "Dual specificity testis-specific protein kinase 1 (TESK1, Homo sapiens, UniProt Q15569)", "remaining binding [%]": 85}
{"target": "Phosphatidylinositol 3-kinase catalytic subunit type 3 (PIK3C3, Homo sapiens, UniProt Q8NEB9)", "remaining binding [%]": 89}
{"target": "Receptor-interacting serine/threonine-protein kinase 1 (RIPK1, Homo sapiens, UniProt Q13546)", "remaining binding [%]": 30}
{"target": "Receptor tyrosine-protein kinase erbB-3 (ERBB3, Homo sapiens, UniProt P21860)", "remaining binding [%]": 100}
{"target": "Dual specificity protein kinase CLK3 (CLK3, Homo sapiens, UniProt P49761)", "remaining binding [%]": 100}
{"target": "Testis-specific serine/threonine-protein kinase 3 (TSSK3, Homo sapiens, UniProt Q96PN8)", "remaining binding [%]": 97}
{"target": "Calcium/calmodulin-dependent protein kinase type 1G (CAMK1G, Homo sapiens, UniProt Q96NX5)", "remaining binding [%]": 100}
{"target": "Mast/stem cell growth factor receptor Kit (KIT, Homo sapiens, UniProt P10721, D816H)", "remaining binding [%]": 64}
{"target": "Phosphatidylinositol 4,5-bisphosphate 3-kinase catalytic subunit beta isoform (PIK3CB, Homo sapiens, UniProt P42338)", "remaining binding [%]": 75}
{"target": "Phosphatidylinositol 4-kinase beta (PI4KB, Homo sapiens, UniProt Q9UBF8)", "remaining binding [%]": 100}
{"target": "Tyrosine-protein kinase ABL1, non-phosphorylated (ABL1, Homo sapiens, UniProt P00519, F317L)", "remaining binding [%]": 68}
{"data": "Study 3", "target": "Bromodomain-containing protein 4, BD1 (BRD4, Homo sapiens, UniProt O60885)", "read-out": "acetyl-histone H4 peptide binding", "technique": "AlphaScreen displacement", "concentration": "50 µM"}
{"SMILES": "Cl.Cl.Cl.Cn1cc(-c2[nH]c3cc(NC(=O)[C@H](N)C4CCCCC4)cc4c3c2C=NNC4=O)cn1", "inhibition [%]": 76}
{"SMILES": "Cc1ccc(-c2csc3nc[nH]c(=O)c23)cc1C", "inhibition [%]": 19.9}
{"SMILES": "Cc1cnc(Nc2ccc(F)cc2Cl)nc1-c1c[nH]c(C(=O)N[C@H](CO)c2cccc(Cl)c2)c1", "inhibition [%]": 64.1}
{"SMILES": "CN1C=CC=CC1=C(C#N)c1nc2ccccc2s1", "inhibition [%]": 64}
{"SMILES": "COc1ccc2nc(NC(=O)C3C4CCC(C4)C3C(=O)O)sc2c1 (centres unmarked)", "inhibition [%]": 5.45}
{"SMILES": "CN(C)c1ccc(/C=C2\\C(=O)Nc3ccccc32)cc1", "inhibition [%]": 81}
{"SMILES": "CC1CCCCN1CCNc1ccc2nnc(-c3ccc(F)cc3)n2n1 (centres unmarked)", "inhibition [%]": 8.75}
{"SMILES": "Cc1ccc2c(c1)C(=NNC(=O)c1cccc(O)c1)C(=O)N2", "inhibition [%]": 41.2}
{"SMILES": "O=C(O)COc1ccccc1C=NNC(=O)c1cc(-c2ccc3c4c(cccc24)CC3)n[nH]1", "inhibition [%]": 19}
{"SMILES": "COC(=O)c1sc2nc[nH]c(=O)c2c1C", "inhibition [%]": 3.75}
{"SMILES": "N#CC(=Cc1ccc[nH]1)c1nc2ccc(C(F)(F)F)cc2s1", "inhibition [%]": 29.1}
{"SMILES": "Nc1nc(Nc2cccc(C(F)(F)F)c2)sc1C(=O)c1ccccc1", "inhibition [%]": 6.6}
{"SMILES": "COC(=O)c1ccc(CSc2nc3c([nH]c4ccccc43)c(=O)n2C)o1", "inhibition [%]": 2.55}
{"SMILES": "Nc1nc(NCc2ccccc2)c2nc[nH]c2n1", "inhibition [%]": 74.2}
{"SMILES": "N#CC(=Cc1ccncc1)c1nc2ccccc2s1", "inhibition [%]": 2.25}
{"SMILES": "CC(C)Oc1ccc(NC(=O)Nc2ccc(Cl)c(Cl)c2)cc1", "inhibition [%]": 9.35}
{"SMILES": "CCc1sc2nc[nH]c(=O)c2c1-c1ccccc1", "inhibition [%]": 11.3}
{"SMILES": "O=C1Nc2ccc(S(=O)(=O)O)cc2C1=C1Nc2ccccc2C1=NO", "inhibition [%]": 75.7}
{"SMILES": "N#CC(=Cc1ccc(O)c(O)c1)C(=O)Nc1ccccc1", "inhibition [%]": 39.2}
{"data": "Study 4", "target": "Tyrosine-protein kinase ITK/TSK (ITK, Homo sapiens, UniProt Q08881)", "read-out": "enzyme activity", "action": "inhibitor", "concentration": "0.5 µM", "relative to": "control", "Residues (Q08881 1-620)": "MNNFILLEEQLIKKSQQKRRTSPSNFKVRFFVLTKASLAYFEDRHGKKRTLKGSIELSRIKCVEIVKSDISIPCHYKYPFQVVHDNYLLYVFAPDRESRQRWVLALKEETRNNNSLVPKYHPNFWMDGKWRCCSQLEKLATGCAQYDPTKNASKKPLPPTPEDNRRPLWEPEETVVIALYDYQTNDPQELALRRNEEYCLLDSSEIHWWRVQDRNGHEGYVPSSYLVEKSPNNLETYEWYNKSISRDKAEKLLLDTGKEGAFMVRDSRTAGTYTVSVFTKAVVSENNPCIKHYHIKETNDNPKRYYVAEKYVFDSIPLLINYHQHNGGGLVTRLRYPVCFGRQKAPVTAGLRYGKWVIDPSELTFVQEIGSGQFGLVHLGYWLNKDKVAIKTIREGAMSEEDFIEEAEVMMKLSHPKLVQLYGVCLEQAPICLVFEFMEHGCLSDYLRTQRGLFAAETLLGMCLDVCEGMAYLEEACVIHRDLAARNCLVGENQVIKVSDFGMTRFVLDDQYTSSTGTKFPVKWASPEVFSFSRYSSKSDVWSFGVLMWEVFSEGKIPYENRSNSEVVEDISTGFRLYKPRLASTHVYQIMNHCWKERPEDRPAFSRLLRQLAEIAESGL"}
{"Compound": "Cc1ccc(NC2=CC(=O)c3sc(C)nc3C2=O)cc1", "remaining activity [%]": 98.6}
{"Compound": "CC(=O)c1ccc(N2CCOCC2)cc1O", "remaining activity [%]": 97}
{"Compound": "Nc1ncnc2c1cnn2-c1ccccc1", "remaining activity [%]": 92.7}
{"Compound": "O=C1Cc2c([nH]c3ccc([N+](=O)[O-])cc23)-c2ccccc2N1", "remaining activity [%]": 97.1}
{"Compound": "CC#CC(=O)Nc1cc2c(Nc3ccc(F)c(Cl)c3)ncnc2cn1", "remaining activity [%]": 76.3}
{"Compound": "Nc1nc(Nc2ccc(S(N)(=O)=O)cc2)nn1C(=O)c1c(F)cccc1F", "remaining activity [%]": 105}
{"Compound": "Cc1cncc2cccc(S(=O)(=O)N3CCCN(C(=O)CN)C[C@@H]3C)c12", "remaining activity [%]": 97.2}
{"Compound": "O=C1NC(=O)C(c2c[nH]c3ccccc23)=C1c1c[nH]c2ccccc12", "remaining activity [%]": 102}
{"Compound": "N#CC(=C(N)Sc1ccc(N)cc1)c1ccccc1C(F)(F)F", "remaining activity [%]": 97.4}
{"Compound": "CCCC(=O)Oc1ccc2[nH]c(C(=O)c3cc4ccccc4[nH]3)cc2c1", "remaining activity [%]": 82}
{"Compound": "CSc1nc(-c2ccnc(N[C@@H](C)c3ccccc3)c2)c(-c2ccc(F)cc2)[nH]1 (racemic)", "remaining activity [%]": 91.6}
{"Compound": "CC(C)(C)n1nc(Cc2cccc3ccccc23)c2c(N)ncnc21", "remaining activity [%]": 86.5}
{"Compound": "Nc1nccc(-c2c(-c3ccc(F)cc3)ncn2C2CCNCC2)n1", "remaining activity [%]": 90.5}
{"Compound": "O=S(=O)(NCCNC/C=C/c1ccc(Br)cc1)c1cccc2cnccc12", "remaining activity [%]": 86.8}
{"Compound": "CC[n+]1c(/C=C/N(C)c2ccccc2)n(-c2ccccc2)c2ccc(-c3nc4ccccc4s3)cc21", "remaining activity [%]": 92.7}
{"Compound": "CCc1[nH]c(-c2ccc(OC)cc2)nc1-c1ccncc1", "remaining activity [%]": 97.4}
{"Compound": "Oc1ccc(Nc2nc(-c3ccc(Cl)cc3)cs2)cc1", "remaining activity [%]": 95.4}
{"Compound": "NC(=O)c1ccc(N(C(N)=O)c2c(F)cccc2F)nc1-c1ccc(F)cc1F", "remaining activity [%]": 105}
{"Compound": "Cc1cc(Nc2nc(-c3ccccc3)nc3ccccc23)n[nH]1", "remaining activity [%]": 45.4}
{"Compound": "Fc1ccc(-c2nc3n(c2-c2ccncc2)CCS3)cc1", "remaining activity [%]": 97.5}
{"Compound": "COc1ccc(S(=O)(=O)N(CCO)c2ccccc2CN(C)CC=Cc2ccc(Cl)cc2)cc1", "remaining activity [%]": 97.1}
{"Compound": "COc1cc(Nc2c(C#N)cnc3cc(OCCCN4CCN(C)CC4)c(OC)cc23)c(Cl)cc1Cl", "remaining activity [%]": 103}
{"note": "Some of these lines once more (study 2):"}
{"target": "Receptor tyrosine-protein kinase erbB-3 (ERBB3, Homo sapiens, UniProt P21860)", "remaining binding [%]": 100}
{"target": "Mast/stem cell growth factor receptor Kit (KIT, Homo sapiens, UniProt P10721, D816H)", "remaining binding [%]": 64}
{"target": "Dual specificity protein kinase CLK3 (CLK3, Homo sapiens, UniProt P49761)", "remaining binding [%]": 100}
{"target": "Leucine-rich repeat serine/threonine-protein kinase 2 (LRRK2, Homo sapiens, UniProt Q5S007, G2019S)", "remaining binding [%]": 100}
{"target": "Dual specificity testis-specific protein kinase 1 (TESK1, Homo sapiens, UniProt Q15569)", "remaining binding [%]": 85}
